Results gathered from unrelated publications.
Each numbered part is a random draw from the data of one study; scales do not carry over between parts. Substitutions count along the parent as printed.

Set 1
Target: RING finger protein unkempt homolog, zinc fingers 1-6, GST-SBP tag (UNK, Homo sapiens, UniProt Q9C0B0, residues 30-357)
UniProt Q9C0B0, sequence (30-357, looked up): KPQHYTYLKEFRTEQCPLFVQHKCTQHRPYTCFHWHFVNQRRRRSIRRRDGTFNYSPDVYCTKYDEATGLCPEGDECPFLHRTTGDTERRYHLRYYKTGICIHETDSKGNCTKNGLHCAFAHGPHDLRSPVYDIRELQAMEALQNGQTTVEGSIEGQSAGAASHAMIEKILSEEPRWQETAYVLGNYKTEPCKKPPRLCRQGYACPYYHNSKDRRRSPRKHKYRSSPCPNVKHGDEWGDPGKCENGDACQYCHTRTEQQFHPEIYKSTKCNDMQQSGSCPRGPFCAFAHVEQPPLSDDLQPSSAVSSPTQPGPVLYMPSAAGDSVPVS
Method: RNA Bind-n-Seq
Molecule type: RNA
Medium: in vitro
Concentration: not given
Notes: RNA with constant flanks, human-mouse chimeric sites, ends assumed
Relative to: input RNA pool
Direction: higher = stronger binding
Sequence	bound/input enrichment [ratio]
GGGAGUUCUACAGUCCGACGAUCAAAUCGUGUGUGUCCAAUAUUGAAAGUGCUUUAUCUACACUCCAGUAUGUAAGCAGUAUAGUAGUUUCUUUAGAGAAUAGGUCAGCCAUUGUGAAGUAUAAUGCAAGCUUAGUCACUCCACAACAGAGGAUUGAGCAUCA	6.66
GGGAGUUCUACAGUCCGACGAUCCUCUUUGAAUCAUUCAAGAGUUUUGAAGGUCUCUUUUAUUUUCUGGGGUCCAUUGUUAACUUUAGUCAGGACCCAGAUGUGCACUUUAAAUAUAUUCAGGCAGCUUGCAAGACUGGGCAACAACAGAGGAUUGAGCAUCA	0.642
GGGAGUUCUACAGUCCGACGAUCAAAGAACCUCUCUCUGAAGAAGAGGAAGAAGACAAUGAUGAUGUUGAACCCAUUUCUGAAUUUCGAUUUGUGCCCAGUGAUAAGUCAGCAUUGGAGGCAAUGUUCACAGCAAUGUGUGAGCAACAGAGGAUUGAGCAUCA	0.188
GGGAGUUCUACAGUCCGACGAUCCUGAGGAAUACCACUGAGAGACCUUAAAAGAAUCAUUUGAGGGCUCUGUUCGUGCAAGAAUAGUCACUGAUCGGGAAAACUGGGUCCCCAAAGGGUUUGGUUUUGUAGACUUUAAUAGUGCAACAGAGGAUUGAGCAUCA	0.671
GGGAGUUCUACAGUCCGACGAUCUAAGUUAUUUUGUACAGCUUUGUAAAUUGUAUAGCUUUUUAUAUUGCCAUGUUUAUUUUGUUUGGGUAAUUUGGUUCAUACAUGGCCUAGCUAAGGUAAUGAACAUCUUUUUCAGUAAUUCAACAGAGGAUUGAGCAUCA	0.96
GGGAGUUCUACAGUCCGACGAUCAGAUUCCCCCUCCUGAGGCCUUCUCCAAAGUUGGAGUCUCUUAUAGAUGCCUCAUCCCCUGUUAGCGUUUUAGUUUGGACCACCCAGCCUUGGACAAUUCCCGCCAACCAGGCAAUUUGCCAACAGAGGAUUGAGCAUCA	1.75
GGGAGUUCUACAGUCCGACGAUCACUCAGAGAUCCACCUCCCAAAGUGCUGGGAGUAAAGUCUGAUAUUAUCAAUUCUCCUUGAUGGAUAUAUAUUUUUUUUAAUAUGAAUCUUCCUGUUCGUCCAGGGAAGAAAGAUUUGUUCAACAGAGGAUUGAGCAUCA	0.515
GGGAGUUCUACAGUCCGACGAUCGCUCCUCCCCGCUCUGCAGCCUGGGGACACUGGGCUGGGACCAGAAUCCAGCUUUCUUUUAAAACUCUCAGUGUAACUUCUUUUUCUUUUUUUCUUUUUUUUUUAAAUAGUGUAUUUUUUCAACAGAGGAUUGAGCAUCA	81.4
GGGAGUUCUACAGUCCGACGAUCGCUCUUGGCAAUGUAAUCAGCGCCUUGGGGGACAAGAGCAAGAGAGCCACCCAUGUCCCCUAUAGAGACUCUAAGCUGACAAGACUCUUGCAGGAUUCCCUUGGGGGUAACAGCCAAACCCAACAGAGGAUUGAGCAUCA	0.117
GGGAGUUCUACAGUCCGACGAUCAGAUAUUAAGUAUUUUGAAAAAACUCGAACAGAUUUGACAAGGGUAGCCAGCUUGGAGUCUAGCAAUUUGCCAAUGUGUUUACCAAUCUGGGGGCUUGUUUUUCUUUUCUUCUUUCAAAUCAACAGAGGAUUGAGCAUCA	0.537
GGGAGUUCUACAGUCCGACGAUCCCCCACAACCAUUUGCAGGUCUGGAACUGCACUCUCUUUUUUAAAAAAUAUGCAUAUAUUUUAGGGCUGUAGAUUUAUUUUCCUGGUUUUGUUUUUCAUUGCUGACUUUUGAGCACAGAACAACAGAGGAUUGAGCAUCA	1.07

Set 2
Target: CCND2, cyclin fold, Cln2 fusion (human)
Method: yeast growth competition, sequencing
Medium: yeast
Notes: weak parent motif
Relative to: not given
Direction: higher = stronger binding
Starting sequence: SAMHD1 docking peptide (human); ASKSRVQLFKDDP
Substitution	normalised enrichment score
K3S	-0.0949
F9L	0.201
S4V	0.111
Q7C	0.0587
D12I	0.0336
K3C	0.0914
V6M	0.314
R5N	-0.223
S2I	0.511
Q7V	0.0594
S4H	0.359
L8N	0.266

Set 3
Target: Interferon regulatory factor 3, full length, phosphomimetic (IRF3, Homo sapiens, UniProt Q14653, residues 1-427, S386D/S396D/S398D/S402D/T404D/S405D)
UniProt Q14653, sequence (whole entry, unmodified, looked up): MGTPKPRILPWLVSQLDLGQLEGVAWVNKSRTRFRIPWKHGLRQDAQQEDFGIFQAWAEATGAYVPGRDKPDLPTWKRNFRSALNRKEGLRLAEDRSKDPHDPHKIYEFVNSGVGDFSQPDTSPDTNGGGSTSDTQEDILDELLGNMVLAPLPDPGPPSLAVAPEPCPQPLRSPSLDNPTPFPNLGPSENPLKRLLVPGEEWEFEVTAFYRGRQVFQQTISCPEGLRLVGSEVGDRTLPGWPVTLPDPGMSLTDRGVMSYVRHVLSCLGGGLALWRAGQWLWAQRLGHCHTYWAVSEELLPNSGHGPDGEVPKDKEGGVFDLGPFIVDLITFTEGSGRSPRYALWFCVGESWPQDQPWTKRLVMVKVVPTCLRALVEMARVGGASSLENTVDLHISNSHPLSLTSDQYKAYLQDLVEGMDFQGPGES
Method: protein-binding microarray
Molecule type: double-stranded DNA, one strand shown
Medium: in vitro
Concentration: 2540 nM top
Notes: 60-bp whole probe
Added: salmon DNA 0.4 mg/ml
Relative to: random background probes
Direction: higher = stronger binding
Constant ends, left off below: GCCTAGCAC … GTCTTGATTCGCTTGACGCTGCTG
Sequence	fitted relative affinity [z-score]
TTAGATCTCAGACTGGATAAGTGCTAG	0.0587
GACGGTTTCAGTCTCGAGACGTGCTAG	5.02
GACGTACTGGGTATCGGGACGTGCTAG	0.0558
TTAGGTTCCAGTTTCGGTTAGTGCTAG	7.56
TTAGGTTTCGGTTTCGGCTAGTGCTAG	11.1
CTAGGACTGGGACTGGGTTAGTGCTAG	-0.854
TTAGCTTTCGACACTGGGTTAGTGCTA	0.453
GACGGTTTCGACACCGGGGACGTGCTA	2.75
AGTTCTCTGAAGACTCTCTTGGTGCTA	0.588
TCATTTTTTTTTTCTACACTGTGCTAG	1.72
TTAGTTTTCCTACTGCTTTAGTGCTAG	3.78
GTATTTGTCCCTATTTAAGAGTGCTAG	2.05
TCATACATTTATATCTTACTGTGCTAG	0.626
AAAATGATTTTTTTCATATAGTGCTAG	0.8
GACGGTCTCGGACTGCGGACGTGCTAG	-0.0842
TTAGCTATCCTTTTCCTTTAGTGCTAG	5.23
TTAGGTATCGGCACTGGGTTAGTGCTA	0.0751
AGATATTTAGAACTTCTCCACGTGCTA	-0.00797
GACGAACTGGGGACTGGAGATGTGCTA	-0.461
TTTGATTTCAGTTTCGATTAGTGCTAG	5.97
TTAGATATCAGAATCGATTAGTGCTAG	1.69
TACGGACTGGGGTTTCGGGACGTGCTA	0.555
TCACATATTCTCTTCTTACTGTGCTAG	1.38
TTCGGTTTCGACTATCGGTTAGTGCTA	3.92
ATGCTACAATAAGTGTTAGTGTGCTAG	-0.171

Set 4
Target: ABI1, truncated, D143A, DHFR fusion (Arabidopsis thaliana)
Method: DHFR PCA, deep sequencing
Medium: yeast
Notes: methotrexate growth selection, single substitutions
Added: (+)-ABA 0.39 µM
Relative to: wild-type fitted maximum
Direction: higher = stronger binding
Starting sequence: PYL1, truncated, DHFR fusion (Arabidopsis thaliana); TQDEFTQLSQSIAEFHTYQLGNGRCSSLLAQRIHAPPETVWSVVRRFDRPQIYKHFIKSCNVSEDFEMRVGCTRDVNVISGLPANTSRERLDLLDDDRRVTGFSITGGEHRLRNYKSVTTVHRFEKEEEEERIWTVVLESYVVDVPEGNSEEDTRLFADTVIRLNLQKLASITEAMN; partner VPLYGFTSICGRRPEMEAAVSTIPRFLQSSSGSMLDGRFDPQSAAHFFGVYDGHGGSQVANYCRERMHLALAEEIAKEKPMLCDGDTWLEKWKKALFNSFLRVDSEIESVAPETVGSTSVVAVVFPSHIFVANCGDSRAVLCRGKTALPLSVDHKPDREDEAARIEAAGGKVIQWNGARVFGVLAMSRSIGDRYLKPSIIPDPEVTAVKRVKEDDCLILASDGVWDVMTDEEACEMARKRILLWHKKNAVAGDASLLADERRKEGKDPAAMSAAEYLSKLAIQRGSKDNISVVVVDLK
Substitution	relative binding score [%]
F103I	-6.57
S26K	1.08
E151S	34.1
N177F	46.2
L93V	57.6
L164K	-3.32
M68C	18.2
C60P	9.88
S27A	4.73
V76K	-4.84
R98L	23.5
A35C	14.1
V161T	19.3
N149Q	59.3
E131C	46.2
V137T	-2.2
E64P	60.1

Excerpt of the above (set 3):
Sequence	fitted relative affinity [z-score]
TTAGATCTCAGACTGGATAAGTGCTAG	0.0587
TTAGGTATCGGCACTGGGTTAGTGCTA	0.0751
TTAGTTTTCCTACTGCTTTAGTGCTAG	3.78
TTAGATATCAGAATCGATTAGTGCTAG	1.69
GACGTACTGGGTATCGGGACGTGCTAG	0.0558
GACGGTCTCGGACTGCGGACGTGCTAG	-0.0842
TACGGACTGGGGTTTCGGGACGTGCTA	0.555
TCACATATTCTCTTCTTACTGTGCTAG	1.38
TTAGGTTTCGGTTTCGGCTAGTGCTAG	11.1
